Results of several laboratories.
Each numbered part is a random draw from the data of one study; scales do not carry over between parts.

Block 1 — technique: RNA Bind-n-Seq; form: RNA; medium: in vitro; concentration: 365 nM; baseline: no-protein control; direction: higher = stronger binding; endpoint: RBNS enrichment (R)
Target: RNA binding protein fox-1 homolog 2, RRM domain, GST-SBP tag (RBFOX2, Homo sapiens, UniProt O43251-10, residues 100-194)
Notes: natural RNA segment, single round, ends assumed
Shared flanks, not repeated: GGGAGUUCUACAGUCCGACGAUC … UGGAAUUCUCGGGUGCCAA
Construct (chain): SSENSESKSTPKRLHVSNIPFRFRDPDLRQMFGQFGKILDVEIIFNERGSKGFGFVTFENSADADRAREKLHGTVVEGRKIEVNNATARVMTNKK
AAGUAUUAAUGAGUAUUUCCUUUCUCCAUAAGUGCAGGACUGUUACUCACUACUAAACUCUACCAAGAAUGGAAACAAAGAAUAUUUUCUGAAGAUUUUUUUGAAGAUUA: 0.529
GCAGUUACUUCAGGUUGAAGUUGCCUUGAUCGCCUGCCCCUCAUCAGGGCUUUUGCUUUUCUUCAAAGUACUGAGGAUCCAACCCAGUGCCUUACACGCCAGGCAAGUGU: 0.361
GCUGCCCAGUCCAUGGGGACAGAACCGUCACUCAGAUCCACAUUCAAGUGUGCCCACCCUGCAGUCUUCAUCCUCACUCAGCUGCUGCCUCUGGAGGUGCCUUUGGCCAC: 0.383
UCAGAUUUCCAAAAUUUCACUCAUACAAGGGAAGAGACUCCAUUUAGCUUAACGGUAGUCUUUAGAUCAUAAGAAAUAUAUAAAUUAGUAUGCACCUUAUCUGCCUGUUG: 0.964
UUCCUCUUAGGCUACAAACCUGUACAGCAUGUUACUGUACUGAACACAAUGGUAAGUAUUUGUGUAUCUAAACAUAGCUAAACAUAGAAAAGGUAUGGUAAAAAUACAAU: 3.05
GCUGGGAUGCGUUUUUCUUGGUGUUGCAUGCUCACAACUCUGCUGACAUUGGGAACUUAUGAGAGAGGAAGACUCGGGAAAGCACAGAUACUGGACAGAUGGAUUCUGGU: 15
UCGCAAGAAGAGAUUUGGGCUUAACACUGGGUACUUUGUGGGUCUCUUUUGUGGAUGGCUUCAAGUAACAUCUAUUUCCAUUGAUCCUAGGUUCUUACUGACUGCUUUCU: 0.215
GAGCACUGCCCCGCCGCCAAAGUCUGCAGAAUGUGAGAUGAGGUUCUCAAGGUCACAGGCCCCAGUCCCAGCCUGGGGGCUGGCAGAGGCCCCCAUAUACUCUGCUACAG: 0.389

Block 2 — technique: universal PBM; form: double-stranded DNA, one strand shown; medium: in vitro; concentration: not given; direction: higher = stronger binding; endpoint: E-score
Target: Sal-like protein 4, full length isoform B (SALL4, Homo sapiens, UniProt Q9UJQ4-2, residues 1-616)
Notes: 8-mer, flanks averaged, mean of replicates
Construct (chain): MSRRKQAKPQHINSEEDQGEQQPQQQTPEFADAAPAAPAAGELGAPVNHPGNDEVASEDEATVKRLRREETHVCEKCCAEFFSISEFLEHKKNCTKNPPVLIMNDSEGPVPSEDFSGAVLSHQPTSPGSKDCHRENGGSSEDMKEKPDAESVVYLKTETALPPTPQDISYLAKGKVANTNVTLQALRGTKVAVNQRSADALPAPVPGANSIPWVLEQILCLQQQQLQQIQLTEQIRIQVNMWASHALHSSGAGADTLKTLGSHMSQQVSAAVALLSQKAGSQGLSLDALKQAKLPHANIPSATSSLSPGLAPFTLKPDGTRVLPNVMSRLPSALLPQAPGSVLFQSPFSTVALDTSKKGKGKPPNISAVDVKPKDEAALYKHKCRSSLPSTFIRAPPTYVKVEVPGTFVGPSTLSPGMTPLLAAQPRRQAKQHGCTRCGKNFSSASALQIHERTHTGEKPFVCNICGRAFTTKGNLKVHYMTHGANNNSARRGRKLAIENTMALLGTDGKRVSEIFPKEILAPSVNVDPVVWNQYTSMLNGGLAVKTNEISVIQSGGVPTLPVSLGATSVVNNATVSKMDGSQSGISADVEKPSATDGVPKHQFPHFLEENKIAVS
TAGTGTAA: 0.259
GAAACAAC: -0.0949
CTTTGGGA: -0.0017
AGGGATTA: 0.116
GATGCACA: -0.0258
CACCTAAA: 0.00264
GAGAAGCA: -0.0711
ACAACAAA: 0.099
ACACTTGC: 0.136
ACGCTGCG: -0.254
GGAATTGA: 0.117
TGGGTCAA: -0.131
AGCTGACT: -0.161
TATCGACA: 0.0173
ACTAGGTG: -0.112
AAAAGGCG: 0.0188
AGAATCCG: -0.179
CGTCACGA: -0.0223
CGAGCTAG: -0.0912
TATGTTCA: 0.281

Block 3 — technique: protein-binding microarray; form: double-stranded DNA, one strand shown; medium: in vitro; concentration: 2540 nM top; notes: 60-bp whole probe; with: salmon DNA 0.4 mg/ml; baseline: random background probes; direction: higher = stronger binding; endpoint: fitted relative affinity; shared flanks, not repeated: GCCTAGCAC … GTCTTGATTCGCTTGACGCTGCTG
Target: Interferon regulatory factor 3, full length, phosphomimetic (IRF3, Homo sapiens, UniProt Q14653, residues 1-427, S386D/S396D/S398D/S402D/T404D/S405D)
Target sequence (chain): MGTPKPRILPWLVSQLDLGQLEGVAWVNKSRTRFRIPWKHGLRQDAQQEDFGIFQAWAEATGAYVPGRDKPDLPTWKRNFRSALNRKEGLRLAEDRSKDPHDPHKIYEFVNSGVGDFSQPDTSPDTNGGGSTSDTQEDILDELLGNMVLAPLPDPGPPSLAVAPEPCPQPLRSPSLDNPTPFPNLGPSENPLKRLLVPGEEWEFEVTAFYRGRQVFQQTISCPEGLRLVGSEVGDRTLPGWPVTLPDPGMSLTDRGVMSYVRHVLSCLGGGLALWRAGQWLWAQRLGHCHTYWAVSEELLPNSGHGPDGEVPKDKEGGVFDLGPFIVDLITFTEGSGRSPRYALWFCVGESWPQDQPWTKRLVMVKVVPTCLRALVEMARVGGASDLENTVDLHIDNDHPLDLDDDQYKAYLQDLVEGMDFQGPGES
TCACTTTACTTTCTTTTACTGTGCTAG: 4.23 z-score
GACGGTTTCGGCTTTCGGGACGTGCTA: 4.14 z-score
GACGGACTGGGACTAGGGACGTGCTAG: -0.78 z-score
TTAGATATCAGTCTCTATTAGTGCTAG: 1.25 z-score
GACGGTTCCGGTTTCGGGGCGTGCTAG: 5.83 z-score
TTAGGTATTGGACTGGGTTAGTGCTAG: -0.583 z-score
GACGGTCTCCTTCTCCTTACGTGCTAG: 3.96 z-score
TTCGGTCTCGGTATCGGTTAGTGCTAG: 2.94 z-score
GACGGTTTCGACTTACGGGACGTGCTA: 3.61 z-score
GACGATCTGAGACTGGAGACGTGCTAG: -0.158 z-score
TCATTTCTATATTTGCTACTGTGCTAG: 2.57 z-score
GACGATCTCGGTTTCGAGACGTGCTAG: 2.68 z-score
GACGGTTTCGGTTCCGGGGCGTGCTAG: 10.4 z-score
TTAGATATCGGGACTGGATTAGTGCTA: -0.0138 z-score
GACGGTTTCCTACTGCTGACGTGCTAG: 5.18 z-score
GCCGGTATCGGTTTCGGGACGTGCTAG: 7.09 z-score
GACGGACTGCTCCTGCTGACGTGCTAG: -0.679 z-score
TCATTTTTTTCTATATGACTGTGCTAG: 1.48 z-score
GACGATATCGGTCTCGAGACGTGCTAG: 1.43 z-score

Block 4 — technique: RNA Bind-n-Seq; form: RNA; medium: in vitro; concentration: not given; baseline: input RNA pool; direction: higher = stronger binding; endpoint: bound/input enrichment
Target: RING finger protein unkempt homolog, zinc fingers 1-6, GST-SBP tag (UNK, Homo sapiens, UniProt Q9C0B0, residues 30-357)
Notes: RNA with constant flanks, human-mouse chimeric sites, ends assumed
Shared flanks, not repeated: GGGAGUUCUACAGUCCGACGAUC … CAACAGAGGAUUGAGCAUCA
Residues (chain): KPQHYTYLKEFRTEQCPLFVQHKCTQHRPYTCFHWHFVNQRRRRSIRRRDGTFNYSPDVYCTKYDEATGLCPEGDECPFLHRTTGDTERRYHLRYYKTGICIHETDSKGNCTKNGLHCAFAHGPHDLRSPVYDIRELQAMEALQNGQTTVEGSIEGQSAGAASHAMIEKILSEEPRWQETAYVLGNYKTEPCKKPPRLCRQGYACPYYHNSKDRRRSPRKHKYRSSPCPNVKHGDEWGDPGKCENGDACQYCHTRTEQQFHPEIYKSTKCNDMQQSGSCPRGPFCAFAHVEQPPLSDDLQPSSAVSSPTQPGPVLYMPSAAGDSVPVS
UGUAGUUUCUUGAUUUAGUGGCUGGGCCUUUUCUUUCUUUCCUUUAGGAAAAGCCUAAAGAUUAGACUGUAAGAAAAACAGAAGCCAUGUUUCGAAGACCUGUGUUACAGGUAUUUCGUC: 0.308 ratio
UCUGGUCACACUCGUGUGUAUGGUGUUUGCUUUGUGGAUACUUCACUGGGCAAGUUUUUCAUCGGCCAGUUUUCGGAUGACCGCCACUGUUCGAGAUUUAGGACGCUAGUGGCUCACUAU: 0.219 ratio
UCUUAACUUAUUCAUUUAACUUAUUUUUAUAGCUAGAUAAAUAUUGUUAGUCUUAGAGAGUAGUUCACAUCUUUACAGAAGCAUGCCCUCCCUGUCCAUUUGUCUUAUAACAUGACCCAG: 5.35 ratio
GGGACUGAUUCAUCCCAAGGACAGGCCACCCCAUUUGGUGUUUGGAAUGACGACAGUAUGGAAGGGCCUAGUCAAAAUGUUGAAGCUGAGUCAAUUCAGGAUGCCAUGAGUAUGGAAGAG: 0.264 ratio
UUUCUACUGCAGCAAACGAUGCUAAGAGUGAAGGAUCCUAAGAAGUCCCUGGAUUUUUAUACGAGGGUUCUUGGACUGACGCUAAUCCAGAAGCUUGACUUCCCUGCUAUGAAGUUCUCG: 0.0541 ratio
UUGAAAACAAACUGAUUUAAGUUUGAGUAUCACAAUGUUAGCUUUCUAAUUCCAUAAAAGUACUUGGUUUUUACAGUUUAUAAUCUGACAUCACCCCCCGUUUAUAAGUAAAGAGCAACU: 0.815 ratio
GUGUCCUGCUUUCAACUUAAAUCACUGAGGCAUCUCUACUGUUCUGUGAGCAUCAGGACUGUAGCGCUUGCCACCACCAUGAGAGUUCAGAAGCAGCCUUUCUGUGGAGGGUGGGAAUGA: 0.12 ratio
CCUGCUCAGAUCACCAUGAAAGUAAUCCAAGGCCUAUAUAGUGGGGUCACCACAGUGGAACUGGACACCCUGGCUGCUGAGACAGCCGCGACCUUGACUACUAAGCACCCUGACUAUGCC: 0.151 ratio

Some of these lines once more (block 3):
GACGGACTGGGACTAGGGACGTGCTAG: -0.78 z-score
TTAGATATCAGTCTCTATTAGTGCTAG: 1.25 z-score
GACGGTTCCGGTTTCGGGGCGTGCTAG: 5.83 z-score
